Experimental data collected from several papers.
Compare with care: the assays were run in different laboratories.
UCHL1: Ubiquitin carboxyl-terminal hydrolase isozyme L1 (UCHL1, Homo sapiens, UniProt P09936)
UniProt P09936, sequence (whole entry, looked up): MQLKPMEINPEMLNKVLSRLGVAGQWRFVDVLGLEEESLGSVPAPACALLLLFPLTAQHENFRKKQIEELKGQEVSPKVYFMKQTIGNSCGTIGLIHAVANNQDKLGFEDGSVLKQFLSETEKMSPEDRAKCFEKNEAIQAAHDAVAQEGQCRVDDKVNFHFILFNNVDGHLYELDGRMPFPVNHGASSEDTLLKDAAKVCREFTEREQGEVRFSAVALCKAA

| SMILES | target or system | test | system | setting | scale | endpoint | value |
| --- | --- | --- | --- | --- | --- | --- | --- |
| N=C(N)c1ccc(OCc2cc(Br)cc(COc3ccc(C(=N)N)cc3)c2)cc1 | Escherichia coli |  | BW25113 | in combination, lowest-FICI combination, with: vancomycin |  | MIC | 25 µg/mL |
| OC(Cn1cncn1)(Cn1cncn1)c1ccc(F)cc1F | Cryptococcus neoformans |  | 108, RPMI 1640 | 24 h, 35 °C |  | MIC | 25 µM |
| Cc1c(CN(C)C(=O)/C=C/c2cnc3c(c2)CCC(=O)N3)oc2ccccc12 | Escherichia coli | broth microdilution | AR-0048 |  |  | MIC | > 32 µg/mL |
| CCc1cc(Nc2cc(=O)n(CCCCO)c(=O)[nH]2)ccc1C | Clostridioides difficile | agar dilution anaerobic | 3588 | 48 h |  | MIC | 1 µg/mL |
| CNC(C)C1CCC(N)C(OC2C(N)CC(N)C(OC3OCC(C)(O)C(NC)C3O)C2O)O1 (stereo not shown) | Salmonella enterica serovar Enteritidis | broth microdilution | clinical isolate RKI-No 205/14 |  |  | MIC | 1 µg/mL |
| O=C(O)CNC(=O)CO/N=c1\cc2n(-c3ccc(Cl)cc3)c3ccccc3nc-2cc1Nc1ccc(Cl)cc1 | Neisseria meningitidis | bacterial growth | ATCC 13077 | 24 h |  | MIC | > 30 µM |
| CN(CC1CCCN(CCc2cccc(C(F)(F)F)c2)C1)C(=O)c1ccco1 (stereo not shown) | Trypanosoma cruzi | reporter translation, Renilla luciferase mRNA translation | cell-free extract | 40 µM | baseline: DMSO | inhibition | 5.9% |
| CCCCCCCCCC(=O)N[C@@H](Cc1c[nH]c2ccccc12)C(=O)N[C@H](CC(N)=O)C(=O)N[C@@H](CC(=O)O)C(=O)N[C@@H]1C(=O)NCC(=O)N[C@@H](CCCN)C(=O)N[C@@H](CC(=O)O)C(=O)N[C@H](C)C(=O)N[C@@H](CC(=O)O)C(=O)NCC(=O)N[C@H](CO)C(=O)N[C@@H]([C@H](C)CC(=O)O)C(=O)N[C@@H](CC(=O)c2ccccc2N)C(=O)O[C@@H]1C | Staphylococcus aureus | broth microdilution | MRSA USA300, Mueller-Hinton broth, Mg2+ 10 mg/L | 16 h, 37 °C, with: Ca2+ 5 mM |  | MIC | 0.25 µg/mL |
| Cc1ccc(CCC(=O)Nc2nnc(S(N)(=O)=O)s2)cc1 | Levilactobacillus brevis |  | ATCC 14869 |  |  | MIC | > 784 µM |
| N#CC(=Cc1cccc(Cl)c1Cl)C(=O)NCc1ccco1 | UCHL1 | covalent, intact protein LC-MS |  | 12.5 µM |  | labelling | 37.9% |
| C=CCO/N=c1\cc2n(-c3ccc(Cl)cc3)c3ccccc3nc-2cc1Nc1ccc(Cl)cc1 | Neisseria meningitidis | bacterial growth | ATCC 13077 | 24 h |  | MIC | > 30 µM |
| CC(C)C1NC(=O)C(C(=O)NC(C(=O)NC2C(=O)N3C2SC(C)(C)C3C(=O)O)c2ccccc2)=C1O (stereo not shown) | Escherichia coli | broth microdilution | BW25113 wild type | 18 h |  | MIC | 50 µg/mL |
| Cc1ncc([N+](=O)[O-])n1CCO | Clostridioides difficile | agar dilution anaerobic | 3581 | 48 h |  | MIC | 1 µg/mL |
| N=C(N)c1ccc(OCCC(CCOc2ccc(C(=N)N)cc2)c2ccccc2)cc1 (stereo not shown) | Escherichia coli |  | mcr-3 polymyxin-resistant | compound alone |  | MIC | > 200 µg/mL |
| O=c1[nH]c(NCc2ccc(Cl)c(Cl)c2)nc2ncn(CCCCCN3CCOCC3)c12 | Clostridioides difficile | agar dilution anaerobic | 3581 | 48 h |  | MIC | 2 µg/mL |
| Cc1ccc2c(c1)sc(-c1ccc(N(C)C)cc1)[n+]2C.[I-] | Trypanosoma cruzi | reporter translation, Renilla luciferase mRNA translation | cell-free extract | 40 µM | baseline: DMSO | inhibition | 40.1% |
| NOCC(=O)O | Nakaseomyces glabratus |  | CG2 |  |  | MIC | 1000 µg/mL |
| CC(C)/N=c1\cc2n(-c3ccc(Cl)cc3)c3ccccc3nc-2cc1Nc1ccc(Cl)cc1 | Neisseria meningitidis | bacterial growth | ATCC 13077 | 24 h |  | MIC | 7.5 µM |
| CCOCCn1cnc2nc(NCc3ccc(Cl)c(Cl)c3)[nH]c(=O)c21 | Clostridioides difficile | agar dilution anaerobic | 3584 | 48 h |  | MIC | 2 µg/mL |
| N=C(N)c1ccc(OCc2cc(COc3ccc(C(=N)N)cc3)cc(-c3ccccc3)c2)cc1 | Escherichia coli |  | BW25113 | compound alone |  | MIC | 100 µg/mL |
| O=c1[nH]c(NCc2ccc(Cl)c(Cl)c2)nc2ncn(CCN3CCOCC3)c12 | Clostridioides difficile | agar dilution anaerobic | 3581 | 48 h |  | MIC | 2 µg/mL |
| CC(C)(C)c1ccc(C(CC(=O)O)NC(=O)c2cc([N+](=O)[O-])ccc2Cl)cc1 (stereo not shown) | UCHL1 | covalent, intact protein LC-MS |  | 12.5 µM |  | labelling | 11.3% |
